# Assay results pooled from the literature.
# Lines come from different studies, so protocols differ.
# Cell line: HEK293
Structure (SMILES),read-out,technique,tested at,time,reference,quantity,result
CCCC1(CC)OOC2(CCN(C(=O)c3ccccc3)CC2)OO1,cell growth or viability,MTT,,72 h,,CC50,> 100 µg/mL
CN1C(=O)[C@@H]2NC(=O)[C@@H]3NC(=O)[C@@H](c4ccc(O)cc4)NC(=O)[C@H](NC(=O)C(NCc4cccc(O)c4)c4ccc(O)cc4)Cc4c[nH]c5cc(ccc45)-c4cc3cc(c4O)Oc3ccc(cc3)C[C@H]1C(=O)N[C@@H](C(=O)O)c1ccc(O)c(c1)Oc1ccc2cc1 (stereo partly drawn),cell viability,CellTiter-Glo,,48 h,,concentration without cytotoxicity,> 256 µg/mL
NCCc1ccc(-c2nc3cc(OCCF)ccc3n3cccc23)cc1,,CellTiter-Glo,,48 h,,LD50,5 to 33 µM
CN1C(=O)[C@@H]2NC(=O)[C@@H]3NC(=O)[C@@H](c4ccc(O)cc4)NC(=O)[C@H](NC(=O)C(N)c4ccc(O)cc4)Cc4c[nH]c5cc(ccc45)-c4cc3cc(c4O)Oc3ccc(cc3)C[C@H]1C(=O)N[C@@H](C(=O)NCCC[N+](C)(C)C)c1ccc(O)c(c1)Oc1ccc2cc1 (stereo partly drawn),cell viability,CellTiter-Glo,,48 h,,concentration without cytotoxicity,> 256 µg/mL
C[C@@](O)(C(F)F)[C@H](NC(=O)c1ccc(C#CC#CC2CC2)cc1)C(=O)NO,,,,,LD50 over MIC90,selectivity ratio,> 100
CC(C)C[C@H](NC(=O)CN)C(=O)N[C@@H](CC(C)C)C(=O)N[C@@H](CCCCN)C(=O)N[C@@H](CC(C)C)C(=O)N[C@@H](CC(C)C)C(=O)N[C@@H](CCCCN)C(=O)N[C@@H](CCCCN)C(=O)N[C@@H](CC(C)C)C(=O)N[C@@H](CC(C)C)C(=O)N[C@@H](CCCCN)C(=O)N[C@@H](CC(C)C)C(=O)N[C@@H](CC(C)C)C(=O)N[C@@H](CCCCN)C(N)=O,cytotoxicity,,,,,CC50,12 µM
O=C(c1ccccc1)N1CCC2(CC1)OOC1(CCCC1)OO2,cell growth or viability,MTT,,72 h,,CC50,> 100 µg/mL
C=C(C)[C@@H]1CC[C@]2(/C=N/NC(=O)c3ccncc3)CC[C@]3(C)[C@H](CC[C@@H]4[C@@]5(C)CCCNC(C)(C)[C@@H]5CC[C@]43C)[C@@H]12,cell growth or viability,resazurin,,20 h,,CC50,> 20 µM
C1N2CN3CN1CP(C2)C3.CC(C)OC(=O)C(n1cccn1)n1cccn1.F[P-](F)(F)(F)(F)F.[Cu+],cell growth or viability,MTT,,,,IC50,> 50 µM
C=C(C)[C@@H]1CC[C@]2(COS(=O)(=O)c3ccc(C)cc3)CC[C@]3(C)[C@H](CC[C@@H]4[C@@]5(C)CCCNC(C)(C)[C@@H]5CC[C@]43C)[C@@H]12,cell growth or viability,resazurin,,20 h,,CC50,≤ 0.125 µM
CC1(c2ccc(F)cc2F)OOC2(CCN(C(=O)c3ccccc3)CC2)OO1,cell growth or viability,MTT,,72 h,,CC50,> 100 µg/mL
CC[C@H](C)[C@H](NC(=O)[C@H](CCCNC(=N)N)NC(=O)[C@H](Cc1ccccc1)NC(=O)[C@H](CC(C)C)NC(=O)[C@H](CCCCN)NC(=O)[C@H](CO)NC(=O)[C@@H](NC(=O)[C@H](CC(C)C)NC(=O)[C@H](CCCCN)NC(=O)[C@H](C)NC(=O)[C@H](CC(N)=O)NC(=O)[C@H](CCCNC(=N)N)NC(=O)[C@H](Cc1ccc(O)cc1)NC(=O)[C@H](C)NC(=O)[C@@H](NC(=O)[C@H](CCCCN)NC(=O)[C@H](CC(N)=O)NC(=O)[C@H](CCCCN)NC(=O)[C@H](CC(C)C)NC(=O)[C@H](CO)NC(=O)[C@H](CC(C)C)NC(=O)[C@H](C)NC(=O)[C@H](C)NC(=O)[C@H](CO)NC(=O)[C@@H](NC(=O)[C@@H](NC(=O)[C@H](Cc1c[nH]c2ccccc12)NC(=O)[C@@H](NC(=O)[C@H](CO)NC(=O)[C@@H](NC(=O)[C@@H](N)CC(C)C)C(C)C)C(C)C)[C@@H](C)CC)[C@@H](C)CC)C(C)C)C(C)C)C(=O)N[C@@H](C)C(=O)N[C@@H](CC(C)C)C(=O)O,,MTT,128 µg/mL,24 h,,cell death,12.2%
C=C(C)[C@@H]1CC[C@]2(C(=O)NC3CCCCC3)CC[C@]3(C)[C@H](CC[C@@H]4[C@@]5(C)CCCNC(C)(C)[C@@H]5CC[C@]43C)[C@@H]12,cell growth or viability,resazurin,,20 h,,CC50,> 20 µM
CN1C(=O)[C@@H]2NC(=O)[C@@H]3NC(=O)[C@@H](c4ccc(O)cc4)NC(=O)[C@H](NC(=O)C(NC(=O)CCCCCN)c4ccc(O)cc4)Cc4c[nH]c5cc(ccc45)-c4cc3cc(c4O)Oc3ccc(cc3)C[C@H]1C(=O)N[C@@H](C(=O)O)c1ccc(O)c(c1)Oc1ccc2cc1 (stereo partly drawn),cell viability,CellTiter-Glo,,48 h,,concentration without cytotoxicity,> 256 µg/mL
COc1cc2c3cc1Oc1cc(ccc1O)CC1c4c(cc(OC)c(O)c4Oc4ccc(cc4)CC3N(C)CC2)CCN1C (stereo not drawn),cell growth or viability,MTT,,24 h,,CC50,104 µM
CCCCc1ccc(-c2nc(C)c(C(C)=NNC(=N)N)s2)cc1,,MTS,40 µg/mL,,,cytotoxicity,toxic
CC[C@H](C)[C@H](NC(=O)[C@H](CCCNC(=N)N)NC(=O)[C@H](CC(C)C)NC(=O)[C@H](CC(C)C)NC(=O)[C@H](C)NC(=O)[C@@H](NC(=O)[C@H](CCCCN)NC(=O)[C@H](CCCCN)NC(=O)[C@H](C)NC(=O)[C@@H](NC(=O)[C@H](Cc1c[nH]c2ccccc12)NC(=O)[C@@H](NC(=O)[C@H](Cc1ccc(O)cc1)NC(=O)[C@H](Cc1ccccc1)NC(=O)[C@H](CC(=O)O)NC(=O)[C@H](Cc1ccc(O)cc1)NC(=O)[C@@H](NC(=O)[C@H](CC(C)C)NC(=O)[C@H](CO)NC(=O)[C@H](C)NC(=O)[C@H](C)NC(=O)[C@@H](NC(=O)[C@@H](NC(=O)[C@@H](N)CC(C)C)[C@@H](C)CC)C(C)C)C(C)C)[C@@H](C)O)[C@@H](C)CC)C(C)C)C(=O)N[C@@H](C)C(=O)N[C@@H](CCCCN)C(=O)N[C@@H](CCCCN)C(=O)N[C@H](C(=O)N[C@@H](CC(C)C)C(=O)N[C@@H](Cc1ccc(O)cc1)C(=O)N[C@@H](CC(C)C)C(=O)N[C@@H](C)C(=O)N[C@@H](CCCNC(=N)N)C(=O)N[C@@H](CC(N)=O)C(=O)N[C@@H](C)C(=O)O)C(C)C,,MTT,1 to 4 µM,,,cytotoxicity,< 6%
C[C@H](Nc1c(-c2c(F)cc(OCCCN(C)C)cc2F)c(Cl)nc2ncnn12)C(F)(F)F,cell growth or viability,ATP luminescence,,48 h,,CC50,0.0261 µM

# Repeated from above:
Structure (SMILES),read-out,technique,tested at,time,reference,quantity,result
C[C@H](Nc1c(-c2c(F)cc(OCCCN(C)C)cc2F)c(Cl)nc2ncnn12)C(F)(F)F,cell growth or viability,ATP luminescence,,48 h,,CC50,0.0261 µM
